Results pooled from the literature.
Parts stem from different laboratories: compare values within a part only. Changes are numbered by the printed parent chain.

Study 1 — technique: DHFR PCA, deep sequencing; medium: yeast; with: (+)-ABA 0.032 µM; reference: wild-type fitted maximum; reading: higher = stronger binding
Target: ABI1, truncated, D143A, DHFR fusion (Arabidopsis thaliana)
Notes: methotrexate growth selection, single substitutions
Starting sequence: PYL1, truncated, DHFR fusion (Arabidopsis thaliana); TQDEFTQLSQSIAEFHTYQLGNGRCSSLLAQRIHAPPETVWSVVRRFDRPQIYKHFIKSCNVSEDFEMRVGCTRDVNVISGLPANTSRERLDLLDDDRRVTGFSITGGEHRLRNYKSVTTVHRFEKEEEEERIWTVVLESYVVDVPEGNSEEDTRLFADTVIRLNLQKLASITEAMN; partner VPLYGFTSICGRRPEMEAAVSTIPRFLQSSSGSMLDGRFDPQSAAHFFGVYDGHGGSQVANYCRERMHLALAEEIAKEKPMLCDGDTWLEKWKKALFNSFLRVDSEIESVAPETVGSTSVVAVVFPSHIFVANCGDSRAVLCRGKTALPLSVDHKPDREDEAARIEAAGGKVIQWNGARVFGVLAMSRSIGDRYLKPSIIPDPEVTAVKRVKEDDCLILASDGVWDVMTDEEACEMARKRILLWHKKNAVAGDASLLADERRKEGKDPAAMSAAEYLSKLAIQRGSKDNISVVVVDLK
Variant | relative binding score [%]
D97C | 9.21
F157T | 4.46
S140R | 4.37
S9T | 28.7
G23L | 1.64
C72P | 0.165
E89C | -9.28

Study 2 — target: CCNA1, cyclin fold, Cln2 fusion (human); technique: yeast growth competition, sequencing; medium: yeast; notes: weak parent motif; reference: not given; reading: higher = stronger binding
Starting sequence: SCAPER docking peptide (human); SNARRSLNFGGST
Variant | normalised enrichment score
SNARRSLFFGGST [N8F] | 0.629
SNARSSLNFGGST [R5S] | 0.399
SNARRSLNFGGSD [T13D] | 1.04
SNARRSFNFGGST [L7F] | -0.00813
SNARRSLNFGGSL [T13L] | 0.622
SNARRSNNFGGST [L7N] | 0.184

Study 3 — technique: universal PBM; form: double-stranded DNA, one strand shown; medium: in vitro; tested at: not given; reading: higher = stronger binding
Target: Sal-like protein 4, full length isoform B (SALL4, Homo sapiens, UniProt Q9UJQ4-2, residues 1-616)
Notes: 8-mer, flanks averaged, mean of replicates
Construct (chain): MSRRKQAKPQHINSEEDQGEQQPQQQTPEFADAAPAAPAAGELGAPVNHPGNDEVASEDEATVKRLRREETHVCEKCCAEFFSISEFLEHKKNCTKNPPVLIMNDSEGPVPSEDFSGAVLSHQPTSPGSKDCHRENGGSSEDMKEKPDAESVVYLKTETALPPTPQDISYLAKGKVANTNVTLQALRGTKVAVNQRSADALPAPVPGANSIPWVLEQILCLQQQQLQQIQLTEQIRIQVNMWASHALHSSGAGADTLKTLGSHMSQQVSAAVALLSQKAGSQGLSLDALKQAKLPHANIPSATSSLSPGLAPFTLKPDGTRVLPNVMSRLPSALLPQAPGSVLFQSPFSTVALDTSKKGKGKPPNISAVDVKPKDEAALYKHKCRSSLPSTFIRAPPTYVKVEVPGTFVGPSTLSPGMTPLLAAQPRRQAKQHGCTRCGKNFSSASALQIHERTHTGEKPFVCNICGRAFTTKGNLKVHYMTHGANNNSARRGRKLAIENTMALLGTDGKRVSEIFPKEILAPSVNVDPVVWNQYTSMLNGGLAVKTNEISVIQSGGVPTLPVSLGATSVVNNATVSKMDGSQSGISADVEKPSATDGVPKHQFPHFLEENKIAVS
Sequence | E-score
CCTGTCCC | -0.119
ACTCATCG | 0.0318
CACACCTA | -0.013
CCTGATCC | -0.173
CGATGTTC | -0.274
ACTGTGGC | -0.212
CAGGTTAG | -0.214
ACGAAAGC | -0.0402
ATGTCGTG | -0.0282
GCTAAAGC | -0.0582

Other studies, line by line
Substance | target | assay | system | conditions | how to read | quantity | result
PhoQ, residues 284 288 289 292 302 303 TNASYF | PhoP, residues 12 14 15 18 19 LYFRQ (Escherichia coli, UniProt P23836) | Sort-seq, measured: YFP reporter | E. coli | PhoQ-PhoP variant library, with: 10 µM Mg2+ | reference: high Mg2+ state, higher = stronger signaling | fold induction | 14.2

For quick reference, copied from above (study 3):
Sequence | E-score
GCTAAAGC | -0.0582
